Assay results of several laboratories.
Numbered parts are unrelated; each lists some results of a single study.

Study 1 — technique: RNA Bind-n-Seq; molecule type: RNA; medium: in vitro; tested at: 365 nM; baseline: no-protein control; reading: higher = stronger binding; measurement: RBNS enrichment (R)
Target: RNA binding protein fox-1 homolog 2, RRM domain, GST-SBP tag (RBFOX2, Homo sapiens, UniProt O43251-10, residues 100-194)
Notes: natural RNA segment, single round, ends assumed
Shared flanks, not repeated: GGGAGUUCUACAGUCCGACGAUC … UGGAAUUCUCGGGUGCCAA
Target sequence (chain): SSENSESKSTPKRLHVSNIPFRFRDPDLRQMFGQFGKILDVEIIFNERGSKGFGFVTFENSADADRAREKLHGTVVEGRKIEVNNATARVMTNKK
CAUAGUUUGGGAGUGGAGAAUACAGACAUUAUCAGCAGUGACAAAUCACAUAGCUUCAAAAACUCCUCCAGUUUGUGACAACAUGACAGGUGUGACAGCAUGACAGGUUU: 1.67
CUCCAUCUUUUGGUGCAUUGGCCAUAUUACUGUGCCAAUAGUGUCUUAACUCAUGUCCCAUCUAUCCUCAGCUGGCCUUGGACCUACAUAGGAGUUGAAUGGGGAGGGGC: 0.336
UGCCCACGCUCCUCCACCACGAGGCACUGACCUGCGUCGGGUGGUGACCGUGGCUGGCGGUCACGCCCUCAGCCCCUCCGGGCACACGUGCCGCCUGACCGGGCGACCCU: 0.187
UUUGUAAUUUGCAUUUAUAUACUCAUUUUAAAUGACUUUUCAGUGUUUUUCAUAGUUUAUAAUCUGAUGGCUAACUAACUUUCAAAACAGCUUUUAACUAAGUUUGUUGU: 0.717
CACCUCAGCUACAGCCUGACAGGAUGCAUGAUGCGCGUCCUGCCCAGGGCCACAGCUGCCACCUGCCAGCCUCUGGAGCCACCACCAUUUGGGUCUCCUCAGGCCCCCGG: 0.275
GGGAUGGGGGUGCCUUGCUCCAGCGGGCUGCAGAUCCCAGCACUGGCGUGACUGACGGCUGAGGCCUGCCUCUCCUUCCCAAGCCCCCUUCCUUCAUCCUUGGGGGUCUC: 0.762
GCUCCGGCCAGAAGCGCCGCUCCGGAAGCGUCCUGCCGCCUCUCGCUUUGCCAGCCUGGGAGCCGCGCGCAUGCGCGCUCUCUCUGCCCUUCUCACCUCUGCUUCACUCG: 0.341
GCAAUGUAGUAAAAUGAAAGAGAAUUAAGAAAGGUUUUGAAUUCUUAUAACAUAUCCAGCCAUUUCAAUUUUGAUUGAAAUGAACUACAAAGAAUAGUGUUUGUCCCUAU: 0.559

Study 2 — technique: RNA Bind-n-Seq; molecule type: RNA; medium: in vitro; tested at: 200 nM; notes: whole 134-nt RNA, ends assumed; together with: 150 mM KCl; baseline: input library; reading: higher = stronger binding; measurement: log2 enrichment
Target: Fragile X messenger ribonucleoprotein 1, C-terminal low-complexity region (Fmr1, Mus musculus, UniProt P35922)
Shared flanks, not repeated: GGGAGUUCUACAGUCCGACGAUC … UGGAAUUCUCGGGUGUCAAGG
AAGUCCUGUGCUACACAUCGUAUGUACCGAAUCGGUUUUUGGUUUUUUUGGUUUGGAAAGUAUUAUGUUACGCCGUUCGGAUCUGCACUU: -0.833
ACCAUGCAGGUGGUCAUCUUUGGGAAGUGGGGCAAGGGGGGGAUAGGGAGGGGGGUAACACUUUGGGAACAGGUGGUCCCAGGUCGUUUC: 0.703
UAGCCCUGGUGGCAUGCGGGGAGGAAGAGGUGGCCUCAUGGAUCGUGGUGGUCCCGGUGGAAUGUUCAGAGGUGGCCGUGGUGGAGACAG: 0.082
CCUCAAGUCCUGUGCUACACAUCGUAUGUACCGAAUCGGGUGGGGUGGGUGGAAAGUAUUAUGUUACGCCGUUCGGAUCUGCACUUCCAG: 1.36
CAAGUCCUGUGCUACACAUCGUAUGUACCGAAUCGGGAAAGGGGAAAGGGAAAGGGAAAGUAUUAUGUUACGCCGUUCGGAUCUGCACUU: 0.391
UCCUGUGCUACACAUCGUAUGUACCGAAUCGGGGUUUUUUUGGGGUGGGGAAAAAGGGGAAAGUAUUAUGUUACGCCGUUCGGAUCUGCA: 0.613
AGUCCUGUGCUACACAUCGUAUGUACCGAAUCGGAAAAAAAGGAAAGGAAAAAAAGGAAAGUAUUAUGUUACGCCGUUCGGAUCUGCACU: -0.866
UGGCCCUGGUGGCAUGCGGGGAGGAAGAGGUGGCCUCAUGGAUCGUGGUGGUCCCGGUGCAAUGUUCAGAGGUGGCCGUGGUGGAGACAG: -0.144
CCUCAAGUCCUGUGCUACACAUCGUAUGUACCGAAUCGGGGUGGGUGGGGUGGAAAGUAUUAUGUUACGCCGUUCGGAUCUGCACUUCCA: 1.25

Study 3 — technique: universal PBM; molecule type: double-stranded DNA, one strand shown; medium: in vitro; tested at: not given; reading: higher = stronger binding; measurement: E-score
Target: Sal-like protein 4, full length isoform B (SALL4, Homo sapiens, UniProt Q9UJQ4-2, residues 1-616)
Notes: 8-mer, flanks averaged, mean of replicates
Construct (chain): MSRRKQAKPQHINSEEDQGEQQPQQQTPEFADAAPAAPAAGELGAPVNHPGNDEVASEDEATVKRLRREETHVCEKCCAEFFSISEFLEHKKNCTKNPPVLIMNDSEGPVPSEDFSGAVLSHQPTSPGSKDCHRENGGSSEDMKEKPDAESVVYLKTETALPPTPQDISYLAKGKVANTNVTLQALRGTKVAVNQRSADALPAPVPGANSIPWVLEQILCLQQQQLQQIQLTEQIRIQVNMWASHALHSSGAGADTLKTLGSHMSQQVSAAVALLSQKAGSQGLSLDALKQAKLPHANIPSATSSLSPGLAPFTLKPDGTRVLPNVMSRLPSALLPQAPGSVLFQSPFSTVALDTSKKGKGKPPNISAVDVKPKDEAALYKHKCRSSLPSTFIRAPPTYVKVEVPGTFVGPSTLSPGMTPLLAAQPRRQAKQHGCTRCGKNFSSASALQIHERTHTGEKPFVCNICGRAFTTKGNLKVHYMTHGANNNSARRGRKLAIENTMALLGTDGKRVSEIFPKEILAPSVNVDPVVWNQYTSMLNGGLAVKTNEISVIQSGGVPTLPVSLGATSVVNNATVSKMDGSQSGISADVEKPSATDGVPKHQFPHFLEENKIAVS
ATCGCGGG: -0.192
GCAAGGTA: 0.0607
GCGGTACC: -0.271
ATTGCGAA: 0.184
CCGTTAAG: -0.149
CAAAGGAC: -0.141
ACAATGTG: 0.103
AGACCCGG: -0.292
ACCTCTCG: -0.0637
GACTCGGA: -0.312
CTTTCGTC: -0.0203
CAGCGACA: -0.0829
GGGACACC: -0.277
AAGGGACA: -0.0887
CTGTTAAA: 0.154
ACTATTCT: -0.00695

Study 4 — technique: protein binding microarray; molecule type: double-stranded DNA, one strand shown; medium: in vitro; tested at: not given; baseline: not given; reading: higher = stronger binding; measurement: E-score
Target: Histone acetyltransferase KAT6A, winged helix 2, GST fusion (KAT6A, Homo sapiens, UniProt Q92794, residues 85-181)
Notes: 8-mer, flanks averaged, mean of 2 arrays, mostly near background
Residues (chain): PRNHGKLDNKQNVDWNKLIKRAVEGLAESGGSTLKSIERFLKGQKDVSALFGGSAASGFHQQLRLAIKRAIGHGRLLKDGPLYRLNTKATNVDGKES
ATTGGAGA: -0.0174
AACGAGAT: 0.067
ATGAGAAG: -0.0207
ACGACCGC: 0.0407
CAAGCGAC: 0.0124
ACCACCTA: -0.276
ATCGCCAA: -0.0982
ACCCTATC: -0.195
GTGTGTCA: 0.0509
CGCCTCTA: 0.0636
CTGTCGAA: -0.0696
CTTAATCA: 0.0591
ATCCCCCA: -0.242
TGAACTAA: -0.0833
ATTGTCAG: 0.0699
GGTGAGCA: 0.0651
AAAATGCG: 0.047
CAGCCGAG: 0.108

Some of these lines once more (study 1):
CAUAGUUUGGGAGUGGAGAAUACAGACAUUAUCAGCAGUGACAAAUCACAUAGCUUCAAAAACUCCUCCAGUUUGUGACAACAUGACAGGUGUGACAGCAUGACAGGUUU: 1.67
CUCCAUCUUUUGGUGCAUUGGCCAUAUUACUGUGCCAAUAGUGUCUUAACUCAUGUCCCAUCUAUCCUCAGCUGGCCUUGGACCUACAUAGGAGUUGAAUGGGGAGGGGC: 0.336
UGCCCACGCUCCUCCACCACGAGGCACUGACCUGCGUCGGGUGGUGACCGUGGCUGGCGGUCACGCCCUCAGCCCCUCCGGGCACACGUGCCGCCUGACCGGGCGACCCU: 0.187
UUUGUAAUUUGCAUUUAUAUACUCAUUUUAAAUGACUUUUCAGUGUUUUUCAUAGUUUAUAAUCUGAUGGCUAACUAACUUUCAAAACAGCUUUUAACUAAGUUUGUUGU: 0.717
CACCUCAGCUACAGCCUGACAGGAUGCAUGAUGCGCGUCCUGCCCAGGGCCACAGCUGCCACCUGCCAGCCUCUGGAGCCACCACCAUUUGGGUCUCCUCAGGCCCCCGG: 0.275
GGGAUGGGGGUGCCUUGCUCCAGCGGGCUGCAGAUCCCAGCACUGGCGUGACUGACGGCUGAGGCCUGCCUCUCCUUCCCAAGCCCCCUUCCUUCAUCCUUGGGGGUCUC: 0.762
GCUCCGGCCAGAAGCGCCGCUCCGGAAGCGUCCUGCCGCCUCUCGCUUUGCCAGCCUGGGAGCCGCGCGCAUGCGCGCUCUCUCUGCCCUUCUCACCUCUGCUUCACUCG: 0.341
GCAAUGUAGUAAAAUGAAAGAGAAUUAAGAAAGGUUUUGAAUUCUUAUAACAUAUCCAGCCAUUUCAAUUUUGAUUGAAAUGAACUACAAAGAAUAGUGUUUGUCCCUAU: 0.559
